Measured values from different studies.
Each numbered part is a random draw from the data of one study; scales do not carry over between parts.

Study 1
Target: RING finger protein unkempt homolog, zinc fingers 1-6, GST-SBP tag (UNK, Homo sapiens, UniProt Q9C0B0, residues 30-357)
Method: RNA Bind-n-Seq
Molecule type: RNA
Matrix: in vitro
Concentration: not given
Setting: RNA with constant flanks, human-mouse chimeric sites, ends assumed
Reference: input RNA pool
Direction: higher = stronger binding
Measurement: bound/input enrichment
All sequences stand within: GGGAGUUCUACAGUCCGACGAUC … CAACAGAGGAUUGAGCAUCA
Target sequence (chain): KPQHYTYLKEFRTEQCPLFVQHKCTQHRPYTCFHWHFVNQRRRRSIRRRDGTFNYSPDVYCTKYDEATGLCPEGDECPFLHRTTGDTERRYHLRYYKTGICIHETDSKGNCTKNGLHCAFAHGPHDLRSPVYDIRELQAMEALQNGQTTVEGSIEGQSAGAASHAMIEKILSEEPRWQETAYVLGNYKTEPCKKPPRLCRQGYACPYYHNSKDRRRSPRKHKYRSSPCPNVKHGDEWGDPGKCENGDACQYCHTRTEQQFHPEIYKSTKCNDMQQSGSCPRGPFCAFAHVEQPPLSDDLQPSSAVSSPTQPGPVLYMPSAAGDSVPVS
UCUGGUCACACUCGUGUGUAUGGUGUUUGCUUUGUGGACACUUCACUGGGCAAGUUUUUCAUCGGCCAGUUUUCGGAUGACCGCCACUGUUCCAGAUUUAGGACUCUAGUGGCUCACUAU: 0.178 ratio
CAGACUGUGUCAUACUUUUUAGACAUUCACAUCAGACUUACAGAGCACCUGGCCACAUUCUAGGUUUGUGUUAUUUCUCAGCUAUGGAUAUGAUCAAAUGAGAACACUGGCAGCCAGAUG: 0.981 ratio
CUGAGGAUACCACUGAAGAGACCUUAAAAGAAUCAUUUGAGGGCUCUCGUUCGGGCAGAAUAGUCACCUGACCGGGAACUGGUUCUUCCAAAGGGUUUGGUUUUGUAGACUUUAAUAGUG: 0.608 ratio
GUAAUGUUUAUUCAUUUAACUUAUUUUUAUAGCUAGAUAAAUAUUGUUAGUCUUAGACAAUAGCUCACAUUUUUUGAGAAGCAUGCCCUCCCUGUCCAUUUGUCUUAUAACAUGACCCAG: 13.6 ratio
ACACAAUAUGAGACCAACAGCAUGGACUUCAAAGUCGGGGCAGAUGGGACAGUCUUCGCCACCCGGGAGCUGCAGGUCCCCUCCGAGCAGGUGGCCUUCACGGUGACUGCAUGGGACAGC: 0.174 ratio
UUACUUUUAACUCCAUGGGUCAAGUUCCUGUGGGAAUCAUACAGGCAGUGUUUGGACCUUCUUCGAAACAAUUCUAGAGUAGAGCGCCUUUACCAUGAUAUCGCCCAACAAGCUUUCAAA: 0.263 ratio
CUGGGCUGCUCGGGUUAUUCUUUCCUUUAGGAAAAGCCUAAAGAUUAGGUUGUAAGAAAAACAGAAGCCAUGUUUCGAAGACCUGUGUUACAGGUAUUUCGUCAGUUUGUAAGACAUGAG: 0.637 ratio
AGGAGGAGGUUAAAGGGUGAGAGUGGGGUGGAAGACUGUGUCAUGGCCCUAGAAACCCUGUUCAGUGUCCUGCUUUCUCUUUGCAGACUGAUGGCCCCUUACACGCCCUUUCUGACUGAG: 0.0487 ratio
CAGUUGAAGACAGAAAAGGAUGAGAAGGAGCUGUAUAAGGUACAUUUGAAGAAUACAGAAAUAGAAAAUACGAAGCUUGUGUCAGAGAUACAGACUUUAAAGAAUUUAGAUGGGAACAAA: 3.35 ratio
UACUACUAUGAUGGUGAUAUUGGCAAUUAUUAUUAUGGACAGGGUCAUCCCAUGAAGCCUCAUAGAAUCCGGAUGACUCAUAACUUGCUGCUAAAUUAUGGCUUAUACCGAAAAAUGGAA: 0.36 ratio
UUCCCAACCUCCCGCCUCACCCCACCCCCGCUUUUUGGAAAGUUUUUGGCGUUUCUUUUUUUUAGAAAUACAAAGUGAUUACAGUUUCCCCCGCAAGGGUCUAUCGAAGGGCUUGACGGA: 0.76 ratio

Study 2
Target: UBE2V1 UBC core domain (UniProt Q13404)
Method: yeast two-hybrid
Matrix: yeast
Setting: mostly zero background
Reference: not given
Direction: higher = stronger interaction
Measurement: lacZ reporter activity
B1: RNF32 RING domain (UniProt Q9H0A6); chain SLLQGDSVQPCPICKEEFELRPQVLLSCSHVFHKACLQAFEKFTNKKTCPLCRKNQYQTRVIH
B2: PHF7 RING domain (UniProt Q9BWX1); chain IQHGHVGEESCILCCEDLSQQSVENIQSPCCSQAIYHRKCIQKYAHTSAKHFFKCPQCNNRKEFPQEML
B3: RNF150 RING domain (UniProt Q9ULK6); chain DKETESDFDNCAVCIEGYKPNDVVRILPCRHLFHKSCVDPWLLDHRTCPMCKMNILKALGIP
B4: RNF112 RING domain (UniProt Q9ULX5); chain QPMAPRELPTCSICLERLRDPISLDCGHDFCIRCFSTHRLPGCEPPCCPECRKICKQKRGLR
B5: TRIM55 RING domain (UniProt Q9BYV6); chain TMDNLEKQLICPICLEMFTKPVVILPCQHNLCRKCASDIFQASNPYLPTRGGTTMASGGRFRCPSCRHEVVLDRHG
B6: NSMCE1 RING domain (UniProt Q8WV22); chain RETYPDAVKICNICHSLLIQGQSCETCGIRMHLPCVAKYFQSNAEPRCPHCNDYWPHEIPKV
B7: MSL2 RING domain (UniProt Q9HCI7); chain LLPYFRQSLSCCVCGHLLQDPIAPTNSTCQHYVCKTCKGKKMMMKPSCSWCKDYEQFEENKQ
B8: TRIM10 RING domain (UniProt Q9UDY6); chain SVTSLADEVNCPICQGTLREPVTIDCGHNFCRACLTRYCEIPGPDLEESPTCPLCKEPFRPGSFRP
B9: TRIM15 RING domain (UniProt Q9C019); chain SLKVVHELPACTLCAGPLEDAVTIPCGHTFCRLCLPALSQMGAQSSGKILLCPLCQEEEQAETPMA
Construct (chain): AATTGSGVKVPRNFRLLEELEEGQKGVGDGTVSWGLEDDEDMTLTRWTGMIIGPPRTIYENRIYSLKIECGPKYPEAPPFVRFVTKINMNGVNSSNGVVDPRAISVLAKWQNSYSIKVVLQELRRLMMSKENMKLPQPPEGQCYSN
FLKKLEQSFMCVCCQELVYQPVTTECFHNVCKDCLQRSFKAQVFSCPACRHDLGQNYIMI (UHRF2 RING domain (UniProt Q96PU4)): 0
B1 (RNF32 RING domain): 0
B2 (PHF7 RING domain): 0
B3 (RNF150 RING domain): 0
MANWVFCNRCFQPPHRTSCFSLTNCGHVYCDACLGKGKKNECLICKAPCRTVLLSK (RNF212 RING domain (UniProt Q495C1)): 0
B4 (RNF112 RING domain): 0
ISNDSETLEECMVCSDMKRDTLFGPCGHIATCSLCSPRVKKCLICKEQVQSRTKIE (MIB1 RING domain (UniProt Q86YT6)): 0
KRQCSDVDDICSICQAEFQKPILLICQHIFCEECMTLWFNREKTCPLCRTVISDHINKW (RNFT1 RING domain (UniProt Q5M7Z0)): 0
B5 (TRIM55 RING domain): 0
B6 (NSMCE1 RING domain): 0
B7 (MSL2 RING domain): 0
B8 (TRIM10 RING domain): 0
B9 (TRIM15 RING domain): 0

Study 3
Target: Interferon regulatory factor 7, full length, phosphomimetic (IRF7, Homo sapiens, UniProt Q92985, residues 1-503, S101K/S471D/S472D/S475D/S476D/S477D/S483D/S484D/S487D)
Method: protein-binding microarray
Molecule type: double-stranded DNA, one strand shown
Matrix: in vitro
Concentration: 250 nM
Setting: 60-bp whole probe
Together with: salmon DNA 0.4 mg/ml
Reference: random background probes
Direction: higher = stronger binding
Measurement: log fluorescence
All sequences stand within: GCCTAGCAC … GTCTTGATTCGCTTGACGCTGCTG
Construct (chain): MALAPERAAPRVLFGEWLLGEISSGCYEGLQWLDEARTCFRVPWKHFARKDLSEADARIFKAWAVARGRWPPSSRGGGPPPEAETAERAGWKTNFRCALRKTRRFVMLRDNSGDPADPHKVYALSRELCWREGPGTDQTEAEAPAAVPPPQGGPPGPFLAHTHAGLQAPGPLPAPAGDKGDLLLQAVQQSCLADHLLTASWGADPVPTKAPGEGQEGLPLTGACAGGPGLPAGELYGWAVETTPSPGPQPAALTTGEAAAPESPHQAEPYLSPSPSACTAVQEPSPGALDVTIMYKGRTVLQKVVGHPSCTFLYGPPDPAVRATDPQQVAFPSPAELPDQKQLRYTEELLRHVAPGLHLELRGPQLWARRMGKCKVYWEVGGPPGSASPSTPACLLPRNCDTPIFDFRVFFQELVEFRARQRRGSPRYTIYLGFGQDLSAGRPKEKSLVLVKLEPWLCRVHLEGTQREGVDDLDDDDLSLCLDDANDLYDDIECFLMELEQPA
TGCTTCCTCTTTCTCTGCTAGTGCTAG: 2.37 z-score
TTAAGTCTCGGTATCGGTTAGTGCTAG: 3.44 z-score
GACGGTTTCGACACTGAGGACGTGCTA: 3.82 z-score
TTAGGTTTCCTTCTTCTTTAGTGCTAG: 2.46 z-score
TGAGCTTACAATATAAAAGGGTGCTAG: -0.245 z-score
GACGGACTGGATATCGGGACGTGCTAG: -0.523 z-score
TTAGAACTGAGACTCGATTAGTGCTAG: 0.923 z-score
TGAACTTGGAATTTCCCTCTGTGCTAG: 0.029 z-score
GACGGTATCGGGACTCGGGACGTGCTA: 0.0912 z-score
TCATCATTATTGTCTCCCACTGTGCTA: 0.312 z-score
GACGATTTCCGTTCCGAGACGTGCTAG: 1.3 z-score
GCAGGGCAGGCAGGCTGAGGGTGCTAG: -1.55 z-score
TCACACATATAATTTTGTACTGTGCTA: 0.537 z-score
GACGAACTGCTACTGCTGACGTGCTAG: -0.618 z-score
GACGATTTCAGTAACGAGACGTGCTAG: 0.288 z-score
TCATCTCTCCATGTGTTACTGTGCTAG: 0.97 z-score
TTAGGACTGGACACCGGGTTAGTGCTA: -0.469 z-score
TCACTCCTCCAGGTTCTCACTGTGCTA: 0.488 z-score
TTAGATCTCAGCCTGGATTAGTGCTAG: -0.136 z-score
TCACATTTACATTTTAGACTGTGCTAG: 0.944 z-score
TTAGGTCTCGGTTTCGGTTTGTGCTAG: 13.2 z-score
GACTGTATCCTTTTCCTGACGTGCTAG: 0.795 z-score
GACTATTTCAGTTTCGAGACGTGCTAG: 5.53 z-score
GTAGATCTCAGTCTCGATTAGTGCTAG: 1.13 z-score
TCATTTTTTTTTTTGGAACTGTGCTAG: 0.741 z-score

Study 4
Target: Histone acetyltransferase KAT6A, both winged helices, GST fusion (KAT6A, Homo sapiens, UniProt Q92794, residues 1-181)
Method: protein binding microarray
Molecule type: double-stranded DNA, one strand shown
Matrix: in vitro
Concentration: not given
Setting: 8-mer, flanks averaged, mean of 2 arrays, mostly near background
Reference: not given
Direction: higher = stronger binding
Measurement: E-score
Construct (chain): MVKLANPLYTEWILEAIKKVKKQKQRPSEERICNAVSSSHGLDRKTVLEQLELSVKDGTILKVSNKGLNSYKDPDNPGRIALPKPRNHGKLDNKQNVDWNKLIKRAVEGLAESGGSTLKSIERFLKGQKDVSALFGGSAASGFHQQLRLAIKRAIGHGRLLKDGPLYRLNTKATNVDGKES
GCACCACA: -0.0422
TAATCTAA: -0.074
AATGGGAA: -0.308
GTACCAGA: -0.194
GACCCCAA: -0.122
ACCATTGC: 0.00211
AAGAAGTA: -0.122
CGTCGACC: -0.0086
AACAGTGA: -0.0548
TCGCGGCA: 0.352
CGGGGTAG: 0.116
AGTACATG: -0.149
AATTGACT: -0.179
TGCGTTAA: 0.17
ACGTAGCC: 0.041
CGTACTTA: 0.126
GTCGGTAA: 0.168
GTTATTTA: 0.0558
ACACCGAC: 0.193
GAAAGAAC: -0.0162
GCCTTGCA: -0.0539
AATCACCT: -0.12
GTACCATA: -0.0287
CTGTATAA: -0.1
GTTGCTCA: -0.196

A few entries again (study 4):
ACACCGAC: 0.193
GCCTTGCA: -0.0539
GCACCACA: -0.0422
GTCGGTAA: 0.168
GTACCATA: -0.0287
AATGGGAA: -0.308
AAGAAGTA: -0.122
